Assay results from different studies.
± gives the spread as reported.

| Structure (SMILES) | tested on | assay | system | conditions | measurement | value |
| --- | --- | --- | --- | --- | --- | --- |
| O=c1sn(-c2cccc3ccccc23)c(=O)n1Cc1ccccc1 | RD |  |  | 3 (unit not given), 33 °C, together with: MgCl2 30 mM | CC50 | 12.8 µM |
| COc1cc(CN2CC3(CCN(S(=O)(=O)c4cn(C)cn4)CC3)c3c(n(C)c4cc(OC)ccc34)[C@H]2CO)cc(OC)c1 | HEp-2, uninfected |  |  |  | CC50 | > 100 µM |
| C[C@@H]1[C@H](O)[C@@H](C)/C=C/C=C/C=C/C=C/C=C/C=C/C=C/[C@H](O[C@@H]2O[C@H](C)[C@@H](O)[C@H](N)[C@@H]2O)C[C@@H]2O[C@](O)(C[C@@H](O)C[C@@H](O)[C@H](O)CC[C@@H](O)C[C@@H](O)CC(=O)O[C@H]1C)C[C@H](O)[C@H]2C(=O)O | J774A.1 | alamarBlue |  |  | CC50 | ≥ 200 µM |
| Cn1cnc(S(=O)(=O)N2CCCCN3[C@H](CO)[C@@H](c4ccc(-c5ccc(F)cc5)cc4)[C@@H]3C2)c1 | HEp-2, uninfected |  |  |  | CC50 | 64 µM |
| CCC[C@H](NC(=O)[C@@H]1[C@H]2CCC[C@H]2CN1C(=O)[C@@H](NC(=O)[C@@H](NC(=O)c1cnccn1)C1CCCCC1)C(C)(C)C)C(=O)C(=O)NC1CC1 | RD |  |  | 3 (unit not given), 33 °C, together with: MgCl2 30 mM | CC50 | 48.8 µM |
| COc1ccc2c3c([nH]c2c1)[C@H](CO)N(Cc1ccccc1)CC31CCN(C(=O)Cc2ccccc2)CC1 | HEp-2, uninfected |  |  | original sample | CC50 | 60 µM |
| CC(=NNC(=S)N1CCCCCC1)c1ccccn1 | HepG2 cells | cell viability |  | 24 h | CC50 | 5.73 µM |
| CN[C@@](C)(C[18F])C(=O)O | A549 tumour model |  | host not given, heart | 15 min, tumour-bearing | tracer uptake | 3.2 %ID/g |
| O=C(C[n+]1ccc2ccccc2c1)c1ccc2ccc3ccccc3c2c1 | HepG2 cells | cell viability |  | 24 h | CC50 | 14 µM |
| CCOC(=O)/C=C/[C@H](C[C@@H]1CCNC1=O)NC(=O)[C@@H](CC(=O)[C@@H](NC(=O)c1cc(C)on1)C(C)C)Cc1ccc(F)cc1 | BHK-21 |  |  | 24 (unit not given) | CC50 | 208.3 ± 1.72 µM |
| NCC(O)CN.Oc1c(Cl)c(Cl)c(Cl)c(Cl)c1Cl | HepG2 cells | cell viability |  | 24 h | CC50 | 86.2 µM |
| O=S(=O)(c1cccs1)N1CCCCN2[C@H](CO)[C@@H](c3ccc(/C=C/c4ccccc4)cc3)[C@@H]2C1 | HEp-2, uninfected |  |  | original sample | CC50 | > 100 µM |
| Nc1cc[c]([Hg][S]c2nc(N)nc3c2ncn3[C@@H]2O[C@H](CO)[C@@H](O)[C@H]2O)cc1 | HepG2 cells | cell viability |  | 24 h | CC50 | 4.71 µM |
| Cc1cccc(-c2ccc([C@@H]3[C@@H](CO)N4CCCCN(S(=O)(=O)c5cn(C)cn5)C[C@@H]34)cc2)c1 | HEp-2, uninfected |  |  | original sample | CC50 | 54 µM |
| CCCCC[CH2][Hg][S]c1nc(N)nc2[nH]cnc12 | HepG2 cells | cell viability |  | 24 h | CC50 | 3.41 µM |
| CC(C)=CC[C@@H](O)C1=CC(=O)c2c(O)ccc(O)c2C1=O | RD |  |  | 3 (unit not given), 33 °C, together with: MgCl2 30 mM | CC50 | 0.4 µM |

Repeated from above:
| Structure (SMILES) | tested on | assay | system | conditions | measurement | value |
| --- | --- | --- | --- | --- | --- | --- |
| Cn1cnc(S(=O)(=O)N2CCCCN3[C@H](CO)[C@@H](c4ccc(-c5ccc(F)cc5)cc4)[C@@H]3C2)c1 | HEp-2, uninfected |  |  |  | CC50 | 64 µM |
| CCC[C@H](NC(=O)[C@@H]1[C@H]2CCC[C@H]2CN1C(=O)[C@@H](NC(=O)[C@@H](NC(=O)c1cnccn1)C1CCCCC1)C(C)(C)C)C(=O)C(=O)NC1CC1 | RD |  |  | 3 (unit not given), 33 °C, together with: MgCl2 30 mM | CC50 | 48.8 µM |
